{"data": "Measured values of several laboratories", "note": "Each numbered part is a random draw from the data of one study; scales do not carry over between parts.", "chain of UniProt Q15418 (whole entry, looked up)": "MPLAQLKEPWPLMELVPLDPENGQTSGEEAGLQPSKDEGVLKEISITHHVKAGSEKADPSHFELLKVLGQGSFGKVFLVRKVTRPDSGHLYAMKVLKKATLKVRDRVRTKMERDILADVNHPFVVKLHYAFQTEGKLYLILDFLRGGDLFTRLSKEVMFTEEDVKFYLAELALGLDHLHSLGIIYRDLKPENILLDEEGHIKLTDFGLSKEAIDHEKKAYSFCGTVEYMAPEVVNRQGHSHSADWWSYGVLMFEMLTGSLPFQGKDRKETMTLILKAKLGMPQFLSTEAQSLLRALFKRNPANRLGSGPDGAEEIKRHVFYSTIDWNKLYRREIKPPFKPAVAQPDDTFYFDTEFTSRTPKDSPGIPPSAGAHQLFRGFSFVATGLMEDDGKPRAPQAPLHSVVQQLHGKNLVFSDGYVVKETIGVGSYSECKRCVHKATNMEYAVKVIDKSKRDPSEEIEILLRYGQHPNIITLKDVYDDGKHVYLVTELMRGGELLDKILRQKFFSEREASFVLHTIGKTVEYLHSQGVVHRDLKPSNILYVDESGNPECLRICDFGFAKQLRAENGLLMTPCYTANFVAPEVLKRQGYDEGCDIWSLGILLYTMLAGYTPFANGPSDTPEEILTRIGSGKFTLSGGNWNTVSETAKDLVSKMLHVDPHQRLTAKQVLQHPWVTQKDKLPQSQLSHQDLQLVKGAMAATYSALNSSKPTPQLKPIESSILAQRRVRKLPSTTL", "chain of UniProt P23443 (whole entry, looked up)": "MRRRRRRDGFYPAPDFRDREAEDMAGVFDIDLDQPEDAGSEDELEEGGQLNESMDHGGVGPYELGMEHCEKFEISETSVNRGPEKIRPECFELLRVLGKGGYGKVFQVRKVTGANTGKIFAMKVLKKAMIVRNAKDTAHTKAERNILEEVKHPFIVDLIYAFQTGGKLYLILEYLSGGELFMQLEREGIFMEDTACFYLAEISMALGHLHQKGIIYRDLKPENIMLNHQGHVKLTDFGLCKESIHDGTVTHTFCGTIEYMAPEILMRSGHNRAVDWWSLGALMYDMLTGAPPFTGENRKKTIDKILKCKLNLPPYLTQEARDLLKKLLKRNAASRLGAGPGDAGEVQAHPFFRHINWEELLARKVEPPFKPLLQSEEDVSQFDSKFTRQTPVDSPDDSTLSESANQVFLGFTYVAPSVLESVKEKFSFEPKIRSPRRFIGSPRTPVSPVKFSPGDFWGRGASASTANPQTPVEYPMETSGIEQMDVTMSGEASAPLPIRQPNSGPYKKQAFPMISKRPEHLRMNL", "chain of UniProt P42336 (whole entry, unmodified, looked up)": "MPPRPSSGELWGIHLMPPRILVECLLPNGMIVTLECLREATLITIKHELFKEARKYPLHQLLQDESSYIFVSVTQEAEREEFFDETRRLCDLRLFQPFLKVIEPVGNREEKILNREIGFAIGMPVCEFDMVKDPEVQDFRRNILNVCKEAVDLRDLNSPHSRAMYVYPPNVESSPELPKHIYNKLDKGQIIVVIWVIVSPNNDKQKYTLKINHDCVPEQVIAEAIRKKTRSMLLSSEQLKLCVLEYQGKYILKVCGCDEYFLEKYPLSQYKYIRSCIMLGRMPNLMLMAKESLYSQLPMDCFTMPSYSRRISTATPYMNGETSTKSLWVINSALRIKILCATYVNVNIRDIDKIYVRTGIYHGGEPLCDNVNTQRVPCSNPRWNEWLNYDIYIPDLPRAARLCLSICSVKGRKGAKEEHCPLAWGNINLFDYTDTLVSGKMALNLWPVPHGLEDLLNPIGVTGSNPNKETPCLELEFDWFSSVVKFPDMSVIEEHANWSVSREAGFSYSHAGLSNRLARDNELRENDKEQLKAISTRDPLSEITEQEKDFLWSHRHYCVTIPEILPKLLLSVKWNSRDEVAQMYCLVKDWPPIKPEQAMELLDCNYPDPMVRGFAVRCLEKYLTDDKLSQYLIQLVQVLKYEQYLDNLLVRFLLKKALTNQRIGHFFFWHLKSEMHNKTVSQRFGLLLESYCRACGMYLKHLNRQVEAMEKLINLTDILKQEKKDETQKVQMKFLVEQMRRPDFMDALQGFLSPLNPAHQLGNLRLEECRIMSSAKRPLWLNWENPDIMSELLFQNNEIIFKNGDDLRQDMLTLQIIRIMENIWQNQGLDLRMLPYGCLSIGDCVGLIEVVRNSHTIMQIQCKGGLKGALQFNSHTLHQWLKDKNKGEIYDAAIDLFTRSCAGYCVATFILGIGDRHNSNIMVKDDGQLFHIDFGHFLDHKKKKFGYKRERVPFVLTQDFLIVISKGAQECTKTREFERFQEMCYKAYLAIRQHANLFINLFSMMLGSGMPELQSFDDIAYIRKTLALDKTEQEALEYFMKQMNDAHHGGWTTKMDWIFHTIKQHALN", "chain of UniProt P23458 (whole entry, looked up)": "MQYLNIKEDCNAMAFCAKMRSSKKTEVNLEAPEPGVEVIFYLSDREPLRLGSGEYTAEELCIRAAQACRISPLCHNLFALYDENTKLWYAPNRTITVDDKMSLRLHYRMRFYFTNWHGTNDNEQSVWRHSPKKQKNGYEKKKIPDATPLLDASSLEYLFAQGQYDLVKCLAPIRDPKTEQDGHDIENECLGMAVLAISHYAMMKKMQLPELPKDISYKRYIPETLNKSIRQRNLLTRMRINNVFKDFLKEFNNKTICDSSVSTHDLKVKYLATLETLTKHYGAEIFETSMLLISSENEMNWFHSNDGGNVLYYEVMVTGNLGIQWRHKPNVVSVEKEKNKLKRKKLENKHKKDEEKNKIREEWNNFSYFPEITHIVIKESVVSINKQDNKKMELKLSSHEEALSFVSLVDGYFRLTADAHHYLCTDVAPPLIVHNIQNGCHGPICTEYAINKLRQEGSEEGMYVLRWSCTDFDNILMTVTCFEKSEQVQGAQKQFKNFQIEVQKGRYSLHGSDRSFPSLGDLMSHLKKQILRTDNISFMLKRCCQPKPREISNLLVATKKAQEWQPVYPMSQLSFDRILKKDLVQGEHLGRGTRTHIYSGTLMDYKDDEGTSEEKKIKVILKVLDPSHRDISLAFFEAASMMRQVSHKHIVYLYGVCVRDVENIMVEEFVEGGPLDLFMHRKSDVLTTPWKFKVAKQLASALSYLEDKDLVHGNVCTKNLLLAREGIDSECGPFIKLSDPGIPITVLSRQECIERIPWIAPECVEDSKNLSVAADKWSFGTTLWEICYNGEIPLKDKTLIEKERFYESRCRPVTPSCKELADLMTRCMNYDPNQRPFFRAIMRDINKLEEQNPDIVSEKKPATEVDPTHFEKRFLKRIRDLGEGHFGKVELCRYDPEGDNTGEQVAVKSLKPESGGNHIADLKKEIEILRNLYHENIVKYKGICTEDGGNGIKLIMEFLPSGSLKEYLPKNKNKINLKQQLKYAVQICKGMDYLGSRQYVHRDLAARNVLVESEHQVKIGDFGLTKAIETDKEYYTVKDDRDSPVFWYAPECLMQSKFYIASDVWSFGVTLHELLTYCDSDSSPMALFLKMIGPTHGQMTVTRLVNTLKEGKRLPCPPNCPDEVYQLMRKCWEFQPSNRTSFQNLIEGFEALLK", "chain of UniProt P07333 (whole entry, looked up)": "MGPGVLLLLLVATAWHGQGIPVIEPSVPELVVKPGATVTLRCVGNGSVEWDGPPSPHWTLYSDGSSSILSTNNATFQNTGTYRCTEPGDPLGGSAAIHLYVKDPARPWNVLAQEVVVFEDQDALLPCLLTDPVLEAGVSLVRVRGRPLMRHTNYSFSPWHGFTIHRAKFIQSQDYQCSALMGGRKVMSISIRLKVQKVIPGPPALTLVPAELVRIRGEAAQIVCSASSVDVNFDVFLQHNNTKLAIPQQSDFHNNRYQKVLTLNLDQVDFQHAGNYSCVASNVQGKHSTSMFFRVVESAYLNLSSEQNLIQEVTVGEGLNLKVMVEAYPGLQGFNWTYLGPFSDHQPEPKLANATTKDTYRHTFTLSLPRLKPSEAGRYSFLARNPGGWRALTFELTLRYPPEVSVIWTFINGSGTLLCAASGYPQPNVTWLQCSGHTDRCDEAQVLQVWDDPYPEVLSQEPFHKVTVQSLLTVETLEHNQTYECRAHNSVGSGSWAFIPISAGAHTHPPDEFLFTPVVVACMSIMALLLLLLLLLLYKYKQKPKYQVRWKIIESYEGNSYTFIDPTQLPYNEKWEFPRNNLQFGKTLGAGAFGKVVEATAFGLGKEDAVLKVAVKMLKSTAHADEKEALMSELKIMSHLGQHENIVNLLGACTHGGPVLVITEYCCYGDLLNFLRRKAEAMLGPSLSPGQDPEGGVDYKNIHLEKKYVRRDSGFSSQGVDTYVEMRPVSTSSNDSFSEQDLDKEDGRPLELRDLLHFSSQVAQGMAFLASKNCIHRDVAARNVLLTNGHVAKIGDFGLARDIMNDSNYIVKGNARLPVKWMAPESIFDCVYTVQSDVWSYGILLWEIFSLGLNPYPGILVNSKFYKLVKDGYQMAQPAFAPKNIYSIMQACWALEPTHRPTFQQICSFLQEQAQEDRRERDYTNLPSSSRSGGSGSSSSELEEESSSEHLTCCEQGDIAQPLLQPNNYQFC"}
{"data": "Set 1", "SMILES": "NS(=O)(=O)c1cc(NC(=O)Cc2ccccc2)ccc1Oc1cccc(Cl)c1", "technique": "competition with immobilised ligand", "tested at": "1 µM"}
{"target": "Ephrin type-B receptor 4 (EPHB4, Homo sapiens, UniProt P54760)", "test": "cell-free assay", "remaining binding": "98%"}
{"target": "Tyrosine-protein kinase JAK1, JH1 (JAK1, Homo sapiens, UniProt P23458)", "test": "cell-free assay", "remaining binding": "99%"}
{"target": "Ribosomal protein S6 kinase alpha-1, N-terminal kinase domain (RPS6KA1, Homo sapiens, UniProt Q15418)", "test": "cell-free assay", "remaining binding": "91%"}
{"target": "Tyrosine-protein kinase ITK/TSK (ITK, Homo sapiens, UniProt Q08881)", "test": "cell-free assay", "remaining binding": "87%"}
{"target": "Mitogen-activated protein kinase 7 (MAPK7, Homo sapiens, UniProt Q13164)", "test": "cell-free assay", "remaining binding": "83%"}
{"target": "Serine/threonine-protein kinase mTOR (MTOR, Homo sapiens, UniProt P42345)", "test": "cell-free assay", "remaining binding": "92%"}
{"target": "Serine/threonine-protein kinase Nek1 (NEK1, Homo sapiens, UniProt Q96PY6)", "test": "cell-free assay", "remaining binding": "93%"}
{"target": "Proto-oncogene tyrosine-protein kinase receptor Ret (RET, Homo sapiens, UniProt P07949)", "test": "cell-free assay", "remaining binding": "100%"}
{"target": "Serine/threonine-protein kinase MARK2 (MARK2, Homo sapiens, UniProt Q7KZI7)", "test": "cell-free assay", "remaining binding": "59%"}
{"target": "Dual specificity protein kinase CLK3 (CLK3, Homo sapiens, UniProt P49761)", "test": "cell-free assay", "remaining binding": "83%"}
{"target": "Serine/threonine-protein kinase PAK 4 (PAK4, Homo sapiens, UniProt O96013)", "test": "cell-free assay", "remaining binding": "87%"}
{"target": "Protein kinase C eta type (PRKCH, Homo sapiens, UniProt P24723)", "test": "cell-free assay", "remaining binding": "93%"}
{"target": "Serine/threonine-protein kinase 25 (STK25, Homo sapiens, UniProt O00506)", "test": "cell-free assay", "remaining binding": "88%"}
{"target": "Proto-oncogene tyrosine-protein kinase ROS (ROS1, Homo sapiens, UniProt P08922)", "test": "cell-free assay", "remaining binding": "81%"}
{"target": "Serine/threonine-protein kinase tousled-like 1 (TLK1, Homo sapiens, UniProt Q9UKI8)", "test": "cell-free assay", "remaining binding": "99%"}
{"target": "Serine/threonine-protein kinase 33 (STK33, Homo sapiens, UniProt Q9BYT3)", "test": "cell-free assay", "remaining binding": "100%"}
{"target": "Atypical kinase COQ8B, mitochondrial (COQ8B, Homo sapiens, UniProt Q96D53)", "test": "cell-free assay", "remaining binding": "100%"}
{"target": "Serine/threonine-protein kinase PAK 6 (PAK6, Homo sapiens, UniProt Q9NQU5)", "test": "cell-free assay", "remaining binding": "100%"}
{"target": "Serine/threonine-protein kinase Nek9 (NEK9, Homo sapiens, UniProt Q8TD19)", "test": "cell-free assay", "remaining binding": "83%"}
{"target": "Tyrosine-protein kinase ABL1, phosphorylated (ABL1, Homo sapiens, UniProt P00519, E255K)", "test": "binding", "remaining binding": "69%"}
{"target": "Phosphatidylinositol 4,5-bisphosphate 3-kinase catalytic subunit alpha isoform (PIK3CA, Homo sapiens, UniProt P42336, C420R)", "test": "cell-free assay", "remaining binding": "62%"}
{"target": "Epidermal growth factor receptor (EGFR, Homo sapiens, UniProt P00533)", "test": "cell-free assay", "remaining binding": "84%"}
{"target": "Tyrosine-protein kinase ABL1, non-phosphorylated (ABL1, Homo sapiens, UniProt P00519, Q252H)", "test": "cell-free assay", "remaining binding": "100%"}
{"target": "Dual specificity mitogen-activated protein kinase kinase 3 (MAP2K3, Homo sapiens, UniProt P46734)", "test": "cell-free assay", "remaining binding": "83%"}
{"data": "Set 2", "cell line": "HaCaT", "tested at": "100 µM", "time": "36 h"}
{"Compound": "CC(=O)O[C@@]12CO[C@@H]1C[C@H](O)[C@@]1(C)C(=O)[C@H](O)C3=C(C)[C@@H](OC(=O)[C@H](O)[C@@H](NC(=O)OC(C)(C)C)c4ccccc4)C[C@@](O)([C@@H](OC(=O)c4ccccc4)[C@H]21)C3(C)C", "viability [%]": 17.6}
{"Compound": "CCC(=O)NS(=O)(=O)c1ccc(-c2c(-c3ccccc3)noc2C)cc1", "viability [%]": 91.4}
{"Compound": "Cc1ncc([N+](=O)[O-])n1CC(C)O (centres unmarked)", "viability [%]": 82.5}
{"Compound": "O=c1ccn([C@@H]2O[C@H](CO)[C@@H](O)[C@H]2O)c(=O)[nH]1", "viability [%]": 99.9}
{"Compound": "COc1ccc(NS(=O)(=O)c2ccc(N)cc2)nn1", "viability [%]": 51.6}
{"Compound": "CC(=O)OCC(=O)NCCCOc1cccc(CN2CCCCC2)c1", "viability [%]": 78.5}
{"Compound": "CC12CC3CC(C)(C1)CC(N)(C3)C2", "viability [%]": 66.5}
{"data": "Set 3", "target": "Beta-1 adrenergic receptor (ADRB1, Homo sapiens, UniProt P08588)", "mode": "antagonist", "chain of UniProt P08588 (whole entry, looked up)": "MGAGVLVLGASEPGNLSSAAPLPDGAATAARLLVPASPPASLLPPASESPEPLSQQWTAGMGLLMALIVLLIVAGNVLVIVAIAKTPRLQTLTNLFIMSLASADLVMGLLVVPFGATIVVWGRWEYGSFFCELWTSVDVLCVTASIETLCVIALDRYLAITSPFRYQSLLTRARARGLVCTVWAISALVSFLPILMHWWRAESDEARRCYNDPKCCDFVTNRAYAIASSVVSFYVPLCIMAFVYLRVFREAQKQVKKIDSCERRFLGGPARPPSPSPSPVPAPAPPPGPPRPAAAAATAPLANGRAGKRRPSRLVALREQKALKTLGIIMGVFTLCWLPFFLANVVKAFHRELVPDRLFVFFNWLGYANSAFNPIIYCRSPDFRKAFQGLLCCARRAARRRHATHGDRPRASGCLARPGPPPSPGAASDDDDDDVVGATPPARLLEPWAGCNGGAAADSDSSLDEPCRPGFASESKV"}
{"Compound": "CN(C)c1cccc(-c2nccc3c(=O)cc(-c4cn[nH]c4)oc23)c1", "IC50 [µM]": "≥ 100"}
{"Compound": "Cc1cc(=O)oc2cc(NC(=O)[C@H](CCC(=O)O)NC(=O)[C@H](CC(C)C)NC(=O)[C@H](CC(C)C)NC(=O)OCc3ccccc3)ccc12", "IC50 [µM]": "≥ 100"}
{"Compound": "Clc1nc(NCc2cccs2)c2[nH]cnc2n1", "IC50 [µM]": "≥ 100"}
{"Compound": "N#Cc1ccc(C(=O)Nc2ccc([C@@H](O)[C@H]3COCC(=O)N3CCCc3ccccc3)cc2)cc1", "IC50 [µM]": "≥ 100"}
{"Compound": "CC1CCCN1C(=O)c1cc(-c2cnn(C(C)C)c2)nc2cc(F)ccc12 (centres unmarked)", "IC50 [µM]": "≥ 100"}
{"Compound": "O=C(Nc1cc(-c2ccccn2)nn1-c1ccccc1)c1ccc2ccccc2n1", "IC50 [µM]": "≥ 100"}
{"Compound": "COc1cc(CN2CCC(C)(C#N)CC2)ccc1OCC(O)CN1CCOCC1 (centres unmarked)", "IC50 [µM]": "≥ 100"}
{"Compound": "COc1ncc(-c2nccc3c(=O)cc(N(C)c4ccccc4)oc23)cn1", "IC50 [µM]": "≥ 100"}
{"Compound": "Cc1cccc(-c2n[nH]cc2-c2ccc(F)c(-c3cnn(CCO)c3)c2)n1", "IC50 [µM]": "≥ 100"}
{"Compound": "CN1CCN(CC(O)COc2ccc(C34CC5CC(CC(C5)C3)C4)cc2)CC1 (centres unmarked)", "IC50 [µM]": "≥ 100"}
{"data": "Set 4", "Compound": "O=c1cc(N2CCOCC2)oc2c1ccc1ccccc12", "effect on": "enzyme activity", "mode": "inhibitor", "tested at": "0.5 µM", "reference": "control"}
{"target": "Macrophage colony-stimulating factor 1 receptor (CSF1R, Homo sapiens, UniProt P07333)", "remaining activity": "103%"}
{"target": "Ephrin type-A receptor 7 (EPHA7, Homo sapiens, UniProt Q15375)", "remaining activity": "98.6%"}
{"target": "NUAK family SNF1-like kinase 1 (NUAK1, Homo sapiens, UniProt O60285)", "remaining activity": "90.1%"}
{"target": "Serine/threonine-protein kinase Sgk1 (SGK1, Homo sapiens, UniProt O00141)", "remaining activity": "98%"}
{"target": "Tyrosine-protein kinase CSK (CSK, Homo sapiens, UniProt P41240)", "remaining activity": "101%"}
{"target": "Fibroblast growth factor receptor 4 (FGFR4, Homo sapiens, UniProt P22455)", "remaining activity": "108%"}
{"target": "Serine/threonine-protein kinase pim-2 (PIM2, Homo sapiens, UniProt Q9P1W9)", "remaining activity": "78.8%"}
{"target": "Ribosomal protein S6 kinase beta-1 (RPS6KB1, Homo sapiens, UniProt P23443)", "remaining activity": "99.3%"}
{"target": "Ephrin type-B receptor 2 (EPHB2, Homo sapiens, UniProt P29323)", "remaining activity": "85%"}
{"target": "Serine/threonine-protein kinase PAK 2 (PAK2, Homo sapiens, UniProt Q13177)", "remaining activity": "103%"}
{"target": "Cytoplasmic tyrosine-protein kinase BMX (BMX, Homo sapiens, UniProt P51813)", "remaining activity": "92.7%"}
{"target": "Myosin light chain kinase, smooth muscle (MYLK, Homo sapiens, UniProt Q15746)", "remaining activity": "92.3%"}
{"target": "Glycogen synthase kinase-3 alpha (GSK3A, Homo sapiens, UniProt P49840)", "remaining activity": "97.1%"}
{"target": "G protein-coupled receptor kinase 6 (GRK6, Homo sapiens, UniProt P43250)", "remaining activity": "93.8%"}
{"target": "Ribosomal protein S6 kinase alpha-1 (RPS6KA1, Homo sapiens, UniProt Q15418)", "remaining activity": "92%"}
{"target": "Protein kinase C epsilon type (PRKCE, Homo sapiens, UniProt Q02156)", "remaining activity": "89.6%"}
{"target": "Protein kinase C gamma type (PRKCG, Homo sapiens, UniProt P05129)", "remaining activity": "101%"}
{"target": "Aurora kinase C (AURKC, Homo sapiens, UniProt Q9UQB9)", "remaining activity": "107%"}
{"target": "SRSF protein kinase 3 (SRPK3, Homo sapiens, UniProt Q9UPE1)", "remaining activity": "105%"}
{"target": "Receptor-type tyrosine-protein kinase FLT3 (FLT3, Homo sapiens, UniProt P36888)", "remaining activity": "104%"}
{"target": "Beta-adrenergic receptor kinase 1 (GRK2, Homo sapiens, UniProt P25098)", "remaining activity": "98.9%"}
{"note": "A few entries again (set 1):"}
{"target": "Proto-oncogene tyrosine-protein kinase receptor Ret (RET, Homo sapiens, UniProt P07949)", "test": "cell-free assay", "remaining binding": "100%"}
{"target": "Tyrosine-protein kinase ITK/TSK (ITK, Homo sapiens, UniProt Q08881)", "test": "cell-free assay", "remaining binding": "87%"}
{"target": "Dual specificity mitogen-activated protein kinase kinase 3 (MAP2K3, Homo sapiens, UniProt P46734)", "test": "cell-free assay", "remaining binding": "83%"}
{"target": "Phosphatidylinositol 4,5-bisphosphate 3-kinase catalytic subunit alpha isoform (PIK3CA, Homo sapiens, UniProt P42336, C420R)", "test": "cell-free assay", "remaining binding": "62%"}
{"target": "Atypical kinase COQ8B, mitochondrial (COQ8B, Homo sapiens, UniProt Q96D53)", "test": "cell-free assay", "remaining binding": "100%"}
{"target": "Ribosomal protein S6 kinase alpha-1, N-terminal kinase domain (RPS6KA1, Homo sapiens, UniProt Q15418)", "test": "cell-free assay", "remaining binding": "91%"}
{"target": "Serine/threonine-protein kinase MARK2 (MARK2, Homo sapiens, UniProt Q7KZI7)", "test": "cell-free assay", "remaining binding": "59%"}
